Measurements from different studies.
A part holds a random share of what one study measured. Values joined by “and” are separate records of one study, mostly repeats; a detail may differ.
Chain of UniProt Q8N5S9 (whole entry, looked up): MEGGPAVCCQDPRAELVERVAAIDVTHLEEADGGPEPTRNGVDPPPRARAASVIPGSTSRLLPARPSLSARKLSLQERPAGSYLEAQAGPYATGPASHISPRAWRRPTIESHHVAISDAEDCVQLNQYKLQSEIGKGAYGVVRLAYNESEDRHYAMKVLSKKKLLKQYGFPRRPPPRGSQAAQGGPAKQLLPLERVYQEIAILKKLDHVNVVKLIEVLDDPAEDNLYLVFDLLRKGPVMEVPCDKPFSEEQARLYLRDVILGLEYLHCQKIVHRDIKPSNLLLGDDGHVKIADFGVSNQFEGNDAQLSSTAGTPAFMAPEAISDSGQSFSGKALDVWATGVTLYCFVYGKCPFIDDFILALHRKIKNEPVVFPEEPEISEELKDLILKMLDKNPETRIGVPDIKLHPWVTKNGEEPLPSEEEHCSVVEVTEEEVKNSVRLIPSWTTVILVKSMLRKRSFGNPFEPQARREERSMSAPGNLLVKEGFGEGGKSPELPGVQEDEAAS
Chain of UniProt P07949 (whole entry, unmodified, looked up): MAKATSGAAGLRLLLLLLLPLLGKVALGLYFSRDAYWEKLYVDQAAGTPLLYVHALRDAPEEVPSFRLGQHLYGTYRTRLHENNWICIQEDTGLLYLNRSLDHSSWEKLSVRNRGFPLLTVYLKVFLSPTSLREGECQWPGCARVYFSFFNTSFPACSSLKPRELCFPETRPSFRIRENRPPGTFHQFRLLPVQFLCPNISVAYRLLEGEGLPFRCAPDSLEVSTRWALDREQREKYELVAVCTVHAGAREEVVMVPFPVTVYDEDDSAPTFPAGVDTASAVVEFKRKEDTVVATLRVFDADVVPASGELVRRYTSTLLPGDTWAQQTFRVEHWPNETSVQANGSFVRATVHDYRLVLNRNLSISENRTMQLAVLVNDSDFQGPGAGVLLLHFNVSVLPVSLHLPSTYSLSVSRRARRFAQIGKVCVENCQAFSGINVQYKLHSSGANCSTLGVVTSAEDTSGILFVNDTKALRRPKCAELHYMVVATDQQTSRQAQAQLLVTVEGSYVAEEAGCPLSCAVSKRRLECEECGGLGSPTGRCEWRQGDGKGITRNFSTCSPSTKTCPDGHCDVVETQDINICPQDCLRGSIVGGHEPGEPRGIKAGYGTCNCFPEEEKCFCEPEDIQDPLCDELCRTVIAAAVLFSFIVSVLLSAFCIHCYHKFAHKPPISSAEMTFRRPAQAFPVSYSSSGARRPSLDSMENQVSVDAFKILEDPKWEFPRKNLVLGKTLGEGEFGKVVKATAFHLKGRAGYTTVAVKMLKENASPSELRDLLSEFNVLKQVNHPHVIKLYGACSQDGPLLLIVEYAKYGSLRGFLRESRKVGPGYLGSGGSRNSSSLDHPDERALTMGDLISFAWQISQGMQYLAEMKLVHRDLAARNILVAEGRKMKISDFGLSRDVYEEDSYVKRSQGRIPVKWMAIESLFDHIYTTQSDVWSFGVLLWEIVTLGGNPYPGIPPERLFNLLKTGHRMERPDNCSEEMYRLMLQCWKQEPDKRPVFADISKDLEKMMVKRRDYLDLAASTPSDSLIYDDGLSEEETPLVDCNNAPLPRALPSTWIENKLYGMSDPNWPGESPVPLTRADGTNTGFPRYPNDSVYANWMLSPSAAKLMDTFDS
Chain of UniProt Q9UHD2 (whole entry, looked up): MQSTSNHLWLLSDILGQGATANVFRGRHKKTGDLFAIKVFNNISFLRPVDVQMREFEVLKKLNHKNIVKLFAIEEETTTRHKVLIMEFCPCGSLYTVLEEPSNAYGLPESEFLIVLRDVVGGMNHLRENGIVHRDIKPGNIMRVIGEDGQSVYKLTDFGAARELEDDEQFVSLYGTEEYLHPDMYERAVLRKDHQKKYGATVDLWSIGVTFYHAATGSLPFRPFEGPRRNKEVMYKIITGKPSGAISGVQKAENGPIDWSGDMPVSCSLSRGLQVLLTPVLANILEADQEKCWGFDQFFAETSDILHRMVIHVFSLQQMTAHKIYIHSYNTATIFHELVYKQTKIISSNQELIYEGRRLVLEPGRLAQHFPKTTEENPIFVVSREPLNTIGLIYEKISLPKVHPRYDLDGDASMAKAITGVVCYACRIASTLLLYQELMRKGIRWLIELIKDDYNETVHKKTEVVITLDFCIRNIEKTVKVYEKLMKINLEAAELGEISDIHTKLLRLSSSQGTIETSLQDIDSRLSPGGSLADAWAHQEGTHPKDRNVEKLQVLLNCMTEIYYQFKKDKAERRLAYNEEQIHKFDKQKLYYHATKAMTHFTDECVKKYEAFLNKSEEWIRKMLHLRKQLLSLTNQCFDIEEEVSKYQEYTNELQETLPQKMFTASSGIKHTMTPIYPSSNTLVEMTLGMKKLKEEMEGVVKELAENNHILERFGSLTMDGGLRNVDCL
Chain of UniProt P06241 (whole entry, looked up): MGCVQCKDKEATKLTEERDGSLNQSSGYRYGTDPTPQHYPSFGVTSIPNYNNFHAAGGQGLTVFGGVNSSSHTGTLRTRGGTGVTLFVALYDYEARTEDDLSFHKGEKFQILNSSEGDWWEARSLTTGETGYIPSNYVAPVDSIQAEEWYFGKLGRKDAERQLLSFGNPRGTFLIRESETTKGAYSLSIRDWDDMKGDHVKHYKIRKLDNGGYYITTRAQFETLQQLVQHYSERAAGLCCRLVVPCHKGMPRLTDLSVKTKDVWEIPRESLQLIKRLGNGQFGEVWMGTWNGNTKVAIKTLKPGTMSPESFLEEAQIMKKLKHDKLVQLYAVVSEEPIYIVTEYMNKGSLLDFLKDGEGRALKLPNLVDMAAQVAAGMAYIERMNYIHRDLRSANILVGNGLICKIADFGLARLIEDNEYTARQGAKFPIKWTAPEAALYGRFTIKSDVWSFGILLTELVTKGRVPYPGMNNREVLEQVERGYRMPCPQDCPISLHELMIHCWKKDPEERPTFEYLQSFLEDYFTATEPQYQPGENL
Chain of UniProt Q8WXR4 (whole entry, looked up): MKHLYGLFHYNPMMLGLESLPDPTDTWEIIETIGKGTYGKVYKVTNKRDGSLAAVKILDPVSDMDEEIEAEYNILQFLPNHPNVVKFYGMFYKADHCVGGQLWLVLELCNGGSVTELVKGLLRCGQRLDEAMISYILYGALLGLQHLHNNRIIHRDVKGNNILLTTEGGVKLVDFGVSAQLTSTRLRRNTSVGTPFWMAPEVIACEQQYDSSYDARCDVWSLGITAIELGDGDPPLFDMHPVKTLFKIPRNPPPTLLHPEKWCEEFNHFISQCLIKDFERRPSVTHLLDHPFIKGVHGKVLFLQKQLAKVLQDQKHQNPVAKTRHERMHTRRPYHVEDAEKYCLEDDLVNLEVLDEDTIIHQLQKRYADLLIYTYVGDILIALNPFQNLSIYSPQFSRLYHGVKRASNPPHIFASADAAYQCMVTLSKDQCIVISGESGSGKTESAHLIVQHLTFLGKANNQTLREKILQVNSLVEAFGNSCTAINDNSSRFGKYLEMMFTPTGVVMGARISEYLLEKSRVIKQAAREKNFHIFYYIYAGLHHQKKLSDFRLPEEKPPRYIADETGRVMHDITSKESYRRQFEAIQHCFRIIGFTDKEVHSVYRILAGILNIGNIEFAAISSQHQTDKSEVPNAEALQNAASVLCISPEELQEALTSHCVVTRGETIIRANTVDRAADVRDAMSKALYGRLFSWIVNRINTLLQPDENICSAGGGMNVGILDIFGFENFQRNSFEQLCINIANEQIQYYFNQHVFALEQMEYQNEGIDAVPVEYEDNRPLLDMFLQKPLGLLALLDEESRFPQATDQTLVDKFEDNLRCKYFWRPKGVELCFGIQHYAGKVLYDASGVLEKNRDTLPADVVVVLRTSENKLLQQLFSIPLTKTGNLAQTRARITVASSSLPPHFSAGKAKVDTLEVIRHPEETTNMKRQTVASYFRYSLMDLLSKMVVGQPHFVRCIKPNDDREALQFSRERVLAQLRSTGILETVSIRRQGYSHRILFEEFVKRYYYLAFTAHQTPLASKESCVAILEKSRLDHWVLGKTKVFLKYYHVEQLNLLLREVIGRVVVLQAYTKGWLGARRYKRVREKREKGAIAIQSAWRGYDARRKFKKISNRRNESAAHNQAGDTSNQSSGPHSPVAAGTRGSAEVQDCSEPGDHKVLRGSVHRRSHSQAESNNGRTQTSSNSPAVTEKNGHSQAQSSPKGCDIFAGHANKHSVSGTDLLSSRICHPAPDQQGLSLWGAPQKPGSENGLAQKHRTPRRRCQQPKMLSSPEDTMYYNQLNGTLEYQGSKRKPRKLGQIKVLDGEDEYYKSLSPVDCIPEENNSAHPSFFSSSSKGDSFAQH

Set 1
Compound: Cc1c(NC(=O)c2cc(C(N)=O)nc3cc(F)ccc23)c(C(F)(F)F)nn1Cc1ccc(C(C)(C)C)cc1
Observed: cell-free assay
Technique: competition with immobilised ligand
Tested at: 1 µM
target | remaining binding [%]
MAST1 (Homo sapiens, UniProt Q9Y2H9) | 100
TBK1 (Homo sapiens, UniProt Q9UHD2) | 95
ITK (Homo sapiens, UniProt Q08881) | 95
RIOK2 (Homo sapiens, UniProt Q9BVS4) | 76
HUNK (Homo sapiens, UniProt P57058) | 100
MAPK15 (Homo sapiens, UniProt Q8TD08) | 56
CAMKK1 (Homo sapiens, UniProt Q8N5S9) | 98
CLK3 (Homo sapiens, UniProt P49761) | 100
Non-receptor tyrosine-protein kinase TYK2, JH2 (TYK2, Homo sapiens, UniProt P29597) | 100
Myosin-IIIb (MYO3B, Homo sapiens, UniProt Q8WXR4) | 100
RET (Homo sapiens, UniProt P07949, V804L) | 83
COQ8B (Homo sapiens, UniProt Q96D53) | 70
MAPK7 (Homo sapiens, UniProt Q13164) | 100
MTOR (Homo sapiens, UniProt P42345) | 86
AXL (Homo sapiens, UniProt P30530) | 100
FYN (Homo sapiens, UniProt P06241) | 100

Set 2
Cell line: Huh-7
Tested at: 10 µM
Time: 24 h
SMILES | viability [%]
CC[C@H]1OC(=O)[C@H](C)[C@@H](O[C@H]2C[C@@](C)(OC)[C@@H](O)[C@H](C)O2)[C@H](C)[C@@H](O[C@@H]2O[C@H](C)C[C@H](N(C)C)[C@H]2O)[C@](C)(OC)C[C@@H](C)C(=O)[C@H](C)[C@@H](O)[C@]1(C)O | 103
CN1CCc2cccc3c2[C@H]1Cc1ccc(O)c(O)c1-3 | 75
CCN(CC)CCNC(=O)c1ccc(N)cc1 | 101
[H]/N=C(/N)N/C(=N/[H])NCCc1ccccc1 | 86.2
CC(COc1ccccc1)NC(C)C(O)c1ccc(O)cc1 (stereo not drawn) | 98.5
CCc1ccc(CCOc2ccc(CC3SC(=O)NC3=O)cc2)nc1 (stereo not drawn) | 94.6
CC(=O)O[C@]1(C(C)=O)CC[C@H]2[C@@H]3C[C@H](C)C4=CC(=O)CC[C@]4(C)[C@H]3CC[C@@]21C | 89.8

Set 3
Target: SRSF protein kinase 3 (SRPK3, Homo sapiens, UniProt Q9UPE1)
Chain of UniProt Q9UPE1 (whole entry, looked up): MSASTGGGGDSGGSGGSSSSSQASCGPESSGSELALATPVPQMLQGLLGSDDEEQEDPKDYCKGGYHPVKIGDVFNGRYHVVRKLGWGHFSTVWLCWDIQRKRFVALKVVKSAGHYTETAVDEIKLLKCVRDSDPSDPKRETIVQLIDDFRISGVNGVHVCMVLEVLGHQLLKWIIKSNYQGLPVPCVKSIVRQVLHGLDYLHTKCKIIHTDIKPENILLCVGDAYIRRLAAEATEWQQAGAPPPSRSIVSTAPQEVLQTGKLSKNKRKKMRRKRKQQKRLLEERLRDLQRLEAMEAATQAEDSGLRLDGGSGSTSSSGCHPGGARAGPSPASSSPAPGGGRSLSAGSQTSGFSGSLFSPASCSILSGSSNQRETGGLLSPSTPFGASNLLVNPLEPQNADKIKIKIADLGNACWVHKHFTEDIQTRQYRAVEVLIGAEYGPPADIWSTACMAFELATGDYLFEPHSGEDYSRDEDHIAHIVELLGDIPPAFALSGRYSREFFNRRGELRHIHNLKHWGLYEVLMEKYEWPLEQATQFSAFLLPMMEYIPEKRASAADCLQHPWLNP
Observed: enzyme activity
Action: inhibitor
Tested at: 0.5 µM
Relative to: control
SMILES | remaining activity [%]
COc1cc2c(Nc3ccc(Br)cc3F)ncnc2cc1OCC1CCN(C)CC1 | 102
N#C/C(=C(/N)SC1C=CC=CC1)c1cccc(C(O)c2ccncc2)c1 (stereo not drawn) | 96.1
CC(C)N(CCC(=O)c1ccc2ccccc2c1)Cc1ccccc1 | 96.5
O=C(O)/C=C/c1cc(Br)c(Br)c(Br)c1Br | 66.9
CNc1cc2c(Nc3cccc(Br)c3)ncnc2cn1 | 97.1
CC(C)(C)c1nc2c3cc[nH]c(=O)c3c3cc(F)ccc3c2[nH]1 | 58.6
CC(C)n1cnc2c(Nc3cccc(Cl)c3)nc(NCCO)nc21 | 47.7
C[C@@H](N)[C@H]1CC[C@H](C(=O)Nc2ccncc2)CC1 | 99.1
O=C(c1ccccc1)c1ccc(N2CCOCC2)cc1O | 103
COc1cc2c(N3CCN(C(=O)Nc4ccc(OC(C)C)cc4)CC3)ncnc2cc1OCCCN1CCCCC1 | 102
CCN(CC)CCCCN1c2ccccc2Oc2ccc(Cl)cc21 | 104
O=Nc1c(-c2c(O)[nH]c3ccccc23)[nH]c2ccccc12 | 97.5
N#CC(c1ccnc(NCCc2cccnc2)n1)c1nc2ccccc2s1 (stereo not drawn) | 89.5
Nc1nc(Nc2ccc(S(N)(=O)=O)cc2)nn1C(=S)Nc1c(F)cccc1F | 48.7
CCCCc1c(-c2ccc(O)cc2)[nH]c2nccnc12 | 98.6
FC(F)(F)c1ccc(/C=C/c2nc(COc3ccc(CCCCn4ccnn4)cc3)co2)cc1 | 104
Clc1ccc(Nc2nnc(Cc3ccncc3)c3ccccc23)cc1 | 104
O=c1c(-c2ccc(F)cc2)c(-c2ccncc2)[nH]n1-c1ccc(Cl)cc1 | 92.2
NC(=O)c1ccc(-c2nc(-c3ccc4c(c3)OCCO4)c(-c3ccccn3)[nH]2)cc1 | 98.5
c1cc(-c2cnn3cc(-c4ccc(OCCN5CCCCC5)cc4)cnc23)ccn1 | 94.8
O=C1NC(=O)/C(=C/c2ccc3c(c2)OC(F)(F)O3)S1 | 95.4
O=C1c2ccccc2-c2nc3nnnn3nc21 | 89.4
NC(=O)c1cccc(-c2cc(Nc3ccc(OC(F)(F)F)cc3)ncn2)c1 | 94.3

Set 4
Structure (SMILES): CC(=O)N[C@@H](Cc1c[nH]c2ccccc12)C(=O)N[C@@H](CCC(=O)C=[N+]=[N-])C(=O)OC(C)C
Host: C57BL/6 CES1-/- mice, EL4 tumour
Medium: EL4 tumour
Route: subcutaneous
Dose: 0.3 mg/kg/day DON equivalent
Time: 5 days
test | conditions | how to read | metabolite peak intensity
UPLC-MS/MS metabolomics, refers to: N-acetylleucine | normalised to tissue mass | higher = more metabolite | 88500 a.u. and 106000 a.u. and 115000 a.u. and 118000 a.u. and 141000 a.u. and 112000 a.u.
UPLC-MS/MS, refers to: FAD |  |  | 155000 a.u. and 149000 a.u. and 130000 a.u. and 153000 a.u. and 151000 a.u. and 175000 a.u.
UPLC-MS/MS metabolomics, refers to: gamma-glutamylglycine | normalised to tissue mass |  | 6.36e+06 a.u. and 6.2e+06 a.u. and 1.02e+07 a.u. and 1.07e+07 a.u. and 3.59e+06 a.u. and 8.84e+06 a.u.
UPLC-MS/MS metabolomics, refers to: glutamine | normalised to tissue mass |  | 2.44e+09 a.u. and 2.39e+09 a.u. and 2.42e+09 a.u. and 2.82e+09 a.u. and 2.4e+09 a.u. and 2.1e+09 a.u.
UPLC-MS/MS metabolomics, refers to: N-formylmethionine | normalised to tissue mass | higher = more metabolite | 484000 a.u. and 597000 a.u. and 482000 a.u. and 485000 a.u. and 306000 a.u. and 251000 a.u.
UPLC-MS/MS, refers to: N,N,N-trimethyl-5-aminovalerate |  |  | 1.26e+08 a.u. and 3.04e+08 a.u. and 3.36e+08 a.u. and 3.27e+08 a.u. and 2.06e+08 a.u. and 1.9e+08 a.u.
LC-MS/MS metabolomics, refers to: 4-guanidinobutanoate | normalised to tissue mass | higher = more metabolite | 6.15e+06 a.u. and 6.94e+06 a.u. and 4.03e+06 a.u. and 7.94e+06 a.u. and 4.61e+06 a.u. and 9.5e+06 a.u.
UPLC-MS/MS metabolomics, refers to: N-acetylalanine | normalised to tissue mass | higher = more metabolite | 5.33e+06 a.u. and 7.83e+06 a.u. and 6.73e+06 a.u. and 6.52e+06 a.u. and 7.75e+06 a.u. and 8.15e+06 a.u.

For quick reference, copied from above (set 1):
target | remaining binding [%]
TBK1 (Homo sapiens, UniProt Q9UHD2) | 95
ITK (Homo sapiens, UniProt Q08881) | 95
RIOK2 (Homo sapiens, UniProt Q9BVS4) | 76
HUNK (Homo sapiens, UniProt P57058) | 100
MAPK15 (Homo sapiens, UniProt Q8TD08) | 56
CAMKK1 (Homo sapiens, UniProt Q8N5S9) | 98
